Experimental data gathered from unrelated publications.
Each numbered part is a random draw from the data of one study; scales do not carry over between parts.

Series 1
Target: Sal-like protein 4, full length isoform B (SALL4, Homo sapiens, UniProt Q9UJQ4-2, residues 1-616)
Technique: universal PBM
Form: double-stranded DNA, one strand shown
Matrix: in vitro
Tested at: not given
Notes: 8-mer, flanks averaged, mean of replicates
Reading: higher = stronger binding
Residues (chain): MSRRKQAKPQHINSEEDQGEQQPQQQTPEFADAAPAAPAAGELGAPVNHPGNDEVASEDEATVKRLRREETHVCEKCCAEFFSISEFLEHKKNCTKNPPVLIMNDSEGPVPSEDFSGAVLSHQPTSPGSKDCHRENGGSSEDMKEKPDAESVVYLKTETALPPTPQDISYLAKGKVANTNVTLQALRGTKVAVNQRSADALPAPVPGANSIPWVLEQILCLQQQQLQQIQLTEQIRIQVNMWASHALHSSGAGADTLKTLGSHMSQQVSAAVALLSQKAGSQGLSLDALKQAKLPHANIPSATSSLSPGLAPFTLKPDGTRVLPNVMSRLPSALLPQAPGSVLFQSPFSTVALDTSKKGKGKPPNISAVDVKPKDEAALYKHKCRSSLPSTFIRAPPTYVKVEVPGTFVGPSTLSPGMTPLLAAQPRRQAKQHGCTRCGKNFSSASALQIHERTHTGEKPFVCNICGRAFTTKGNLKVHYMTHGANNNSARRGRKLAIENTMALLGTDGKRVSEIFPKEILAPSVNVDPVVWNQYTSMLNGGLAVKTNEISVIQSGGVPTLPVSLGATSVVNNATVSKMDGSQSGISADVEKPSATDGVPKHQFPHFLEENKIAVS
Strand	E-score
AAATCTAC	0.254
AGAGGATC	-0.19
ATCTGCTG	0.0424
GCAGTGAA	0.0944

Series 2
Target: RING finger protein unkempt homolog, zinc fingers 1-6, GST-SBP tag (UNK, Homo sapiens, UniProt Q9C0B0, residues 30-357)
Chain of UniProt Q9C0B0 (30-357, looked up): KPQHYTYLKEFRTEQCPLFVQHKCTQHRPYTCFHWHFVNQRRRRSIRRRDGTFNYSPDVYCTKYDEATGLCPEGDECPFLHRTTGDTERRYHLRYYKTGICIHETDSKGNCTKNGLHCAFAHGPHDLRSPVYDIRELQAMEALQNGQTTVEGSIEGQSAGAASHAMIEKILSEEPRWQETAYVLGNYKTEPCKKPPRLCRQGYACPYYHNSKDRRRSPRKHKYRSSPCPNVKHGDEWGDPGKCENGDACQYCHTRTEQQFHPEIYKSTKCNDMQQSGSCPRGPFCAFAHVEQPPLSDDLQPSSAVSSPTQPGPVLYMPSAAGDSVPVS
Technique: RNA Bind-n-Seq
Form: RNA
Matrix: in vitro
Tested at: not given
Notes: RNA with constant flanks, human and mouse sites, ends assumed
Baseline: input RNA pool
Reading: higher = stronger binding
Constant ends, left off below: GGGAGUUCUACAGUCCGACGAUC … CAACAGAGGAUUGAGCAUCA
Strand	bound/input enrichment
UUGUUCCAUGAAUAUCUUUCUUAAGAAGUGUUACCUUGUUAAAGUGACUACCAUUCUAAACCAUUUUUAAGUGGUCUGGACAGUGAGUUUACAGUUUCAUAUCAACUAUCUAAAACCUAA	0.148 ratio
AAAAGGAAAGAGCCAAAUAAAAGCAUCAAGCAUUGCACAGUUCUCUCCAAUAACAUAGAUCAUCUCUUACUGAAUUUAACACUGUCUGAUAUCAUGGUCUCCCUGGCAAAUGCGUCAACU	0.13 ratio
AAUAAUCUUCAAAAGUAUAUAGAGAUAUAUGUACAGAAGGUGAAUCCAAGUCGACUUCCUGUAGUUAUUGGAGGAUUACUUGAUGUUGACUGUUCUGAAGAUGUCAUAAAAAACUUGAUU	0.262 ratio
UGCAAUUGGGUAGUGGACACUUGUUUACACAAGGGAAGUCGAGAUAACAUGAGUAUUGUACUAGUUUGCUUUUCAAAUGCUCCCAAGGUCUCAGAUGAAGCGGUGAAAAAAGAUUCAGAG	0.255 ratio
AAACCAACAAAUCCAGCAGCCCAGAAGGCUCUUACUACACCUACUCAUUAUAAACUGACACCCCGCCCUGCCACUAGAGUCCGGCCAAAGGCUUUACAAACAACAGGCACAGCCAAGUCA	0.581 ratio

Series 3
Target: Prothrombin, mature alpha-thrombin (F2, Homo sapiens, UniProt P00734)
Technique: aptamer microarray, sandwich
Form: DNA with 2'F-ANA
Matrix: in vitro
Tested at: 200 nM
Notes: whole 15-mer aptamer, many near background
Added: Cy3 exosite-II aptamer, 400 nM
Reading: higher = stronger binding
Strand	mean fluorescence intensity [a.u.]
GGTTGGTGTGGTTGG (2'F-ANA at 2 5 7 8 9 11 13)	66.8
GGTTGGTGTGGTTGG (2'F-ANA at 1 2 3 4 5 7 9 10 13)	48.2
GGTTGGTGTGGTTGG (2'F-ANA at 1 2 4 6 7)	124
GGTTGGTGTGGTTGG (2'F-ANA at 3 6 8 10 14 15)	427

Mixed results
Molecule	target	assay	system	conditions	scale	quantity	result
PhoQ, residues 284 288 289 292 302 303 ALAMYF	PhoP, residues 12 14 15 18 19 LWHVM (Escherichia coli, UniProt P23836)	Sort-seq, refers to: YFP reporter	E. coli	PhoQ-PhoP variant library, added: 10 µM Mg2+	baseline: high Mg2+ state, higher = stronger signaling	fold induction	2.97

For quick reference, copied from above (series 3):
Strand	mean fluorescence intensity [a.u.]
GGTTGGTGTGGTTGG (2'F-ANA at 1 2 4 6 7)	124
GGTTGGTGTGGTTGG (2'F-ANA at 3 6 8 10 14 15)	427
